# Results pooled from the literature.
# Numbered parts are unrelated; each lists some results of a single study. “And” joins repeats or separate records; there may be more than shown.
# Sequence of UniProt P06241 (whole entry, looked up): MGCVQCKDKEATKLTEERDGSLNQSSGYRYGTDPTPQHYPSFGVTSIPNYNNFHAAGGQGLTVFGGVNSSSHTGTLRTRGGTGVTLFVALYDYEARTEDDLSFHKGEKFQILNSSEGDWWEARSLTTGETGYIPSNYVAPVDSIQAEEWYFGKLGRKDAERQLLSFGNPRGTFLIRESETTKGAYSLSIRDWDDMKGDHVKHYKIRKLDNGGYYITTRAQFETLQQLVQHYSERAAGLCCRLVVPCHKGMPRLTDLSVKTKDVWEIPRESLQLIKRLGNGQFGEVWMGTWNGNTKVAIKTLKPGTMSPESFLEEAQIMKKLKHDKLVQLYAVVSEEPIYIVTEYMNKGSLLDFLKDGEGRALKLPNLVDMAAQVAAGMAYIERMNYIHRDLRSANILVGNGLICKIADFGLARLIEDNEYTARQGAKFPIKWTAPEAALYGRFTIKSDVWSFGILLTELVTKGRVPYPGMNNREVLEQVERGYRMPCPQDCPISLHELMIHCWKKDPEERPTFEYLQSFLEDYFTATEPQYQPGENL
# Sequence of UniProt O00506 (whole entry, looked up): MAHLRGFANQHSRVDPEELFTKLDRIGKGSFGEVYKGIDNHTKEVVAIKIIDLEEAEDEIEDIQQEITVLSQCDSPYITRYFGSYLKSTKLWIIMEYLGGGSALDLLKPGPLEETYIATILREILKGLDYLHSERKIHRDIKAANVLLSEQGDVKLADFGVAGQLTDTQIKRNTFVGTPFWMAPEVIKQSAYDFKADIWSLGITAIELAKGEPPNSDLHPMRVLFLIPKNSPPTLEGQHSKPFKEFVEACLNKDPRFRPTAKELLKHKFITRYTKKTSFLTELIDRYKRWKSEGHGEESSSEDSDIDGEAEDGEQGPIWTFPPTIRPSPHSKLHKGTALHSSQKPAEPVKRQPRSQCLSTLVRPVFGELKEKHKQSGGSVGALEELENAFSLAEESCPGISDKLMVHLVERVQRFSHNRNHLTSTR
# Sequence of UniProt Q08881 (whole entry, looked up): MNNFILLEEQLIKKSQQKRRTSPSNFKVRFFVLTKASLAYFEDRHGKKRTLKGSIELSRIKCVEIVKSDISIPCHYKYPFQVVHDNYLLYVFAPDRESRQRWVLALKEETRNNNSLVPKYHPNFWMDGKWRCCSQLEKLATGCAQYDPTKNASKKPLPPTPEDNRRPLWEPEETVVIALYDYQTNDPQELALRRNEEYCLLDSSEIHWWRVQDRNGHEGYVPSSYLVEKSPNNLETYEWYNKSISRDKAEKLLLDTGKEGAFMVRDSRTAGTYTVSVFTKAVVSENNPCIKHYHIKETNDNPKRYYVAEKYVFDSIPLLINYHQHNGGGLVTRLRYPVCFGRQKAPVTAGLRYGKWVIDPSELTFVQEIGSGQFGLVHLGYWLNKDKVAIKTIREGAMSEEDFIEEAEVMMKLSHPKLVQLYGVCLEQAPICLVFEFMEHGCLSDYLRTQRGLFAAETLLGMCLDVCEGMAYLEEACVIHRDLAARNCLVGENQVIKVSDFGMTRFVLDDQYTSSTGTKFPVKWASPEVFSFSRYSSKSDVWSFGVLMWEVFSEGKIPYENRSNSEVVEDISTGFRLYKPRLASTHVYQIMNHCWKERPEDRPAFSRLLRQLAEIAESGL
# Sequence of UniProt P09769 (whole entry, looked up): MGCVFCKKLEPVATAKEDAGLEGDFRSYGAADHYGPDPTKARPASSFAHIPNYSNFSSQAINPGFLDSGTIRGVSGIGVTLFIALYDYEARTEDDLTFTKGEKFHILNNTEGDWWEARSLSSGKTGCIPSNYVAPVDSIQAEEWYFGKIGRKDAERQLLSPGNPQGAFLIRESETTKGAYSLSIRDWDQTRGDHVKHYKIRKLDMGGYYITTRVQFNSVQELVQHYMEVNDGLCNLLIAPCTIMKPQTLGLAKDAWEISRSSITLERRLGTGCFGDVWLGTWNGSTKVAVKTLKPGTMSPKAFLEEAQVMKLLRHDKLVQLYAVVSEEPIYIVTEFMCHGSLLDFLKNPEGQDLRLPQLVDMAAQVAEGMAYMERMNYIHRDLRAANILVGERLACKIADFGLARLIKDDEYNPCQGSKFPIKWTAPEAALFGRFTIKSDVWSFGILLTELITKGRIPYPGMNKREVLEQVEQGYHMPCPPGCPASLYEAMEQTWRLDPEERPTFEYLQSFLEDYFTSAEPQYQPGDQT
# Sequence of UniProt P31749 (whole entry, looked up): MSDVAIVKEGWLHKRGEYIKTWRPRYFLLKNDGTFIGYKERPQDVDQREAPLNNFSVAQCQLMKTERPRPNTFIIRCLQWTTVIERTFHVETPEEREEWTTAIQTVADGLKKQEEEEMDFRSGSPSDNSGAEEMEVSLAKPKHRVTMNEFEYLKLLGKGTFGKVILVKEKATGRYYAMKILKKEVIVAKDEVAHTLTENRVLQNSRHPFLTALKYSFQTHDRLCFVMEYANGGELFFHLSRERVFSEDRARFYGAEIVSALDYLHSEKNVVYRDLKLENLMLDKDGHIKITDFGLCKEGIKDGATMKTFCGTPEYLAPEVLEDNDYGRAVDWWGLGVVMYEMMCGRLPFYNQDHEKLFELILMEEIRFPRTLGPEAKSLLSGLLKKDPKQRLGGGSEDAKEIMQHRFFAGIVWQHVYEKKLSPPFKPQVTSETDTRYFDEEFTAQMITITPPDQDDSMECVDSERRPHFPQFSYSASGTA
# Sequence of UniProt P35916 (whole entry, looked up): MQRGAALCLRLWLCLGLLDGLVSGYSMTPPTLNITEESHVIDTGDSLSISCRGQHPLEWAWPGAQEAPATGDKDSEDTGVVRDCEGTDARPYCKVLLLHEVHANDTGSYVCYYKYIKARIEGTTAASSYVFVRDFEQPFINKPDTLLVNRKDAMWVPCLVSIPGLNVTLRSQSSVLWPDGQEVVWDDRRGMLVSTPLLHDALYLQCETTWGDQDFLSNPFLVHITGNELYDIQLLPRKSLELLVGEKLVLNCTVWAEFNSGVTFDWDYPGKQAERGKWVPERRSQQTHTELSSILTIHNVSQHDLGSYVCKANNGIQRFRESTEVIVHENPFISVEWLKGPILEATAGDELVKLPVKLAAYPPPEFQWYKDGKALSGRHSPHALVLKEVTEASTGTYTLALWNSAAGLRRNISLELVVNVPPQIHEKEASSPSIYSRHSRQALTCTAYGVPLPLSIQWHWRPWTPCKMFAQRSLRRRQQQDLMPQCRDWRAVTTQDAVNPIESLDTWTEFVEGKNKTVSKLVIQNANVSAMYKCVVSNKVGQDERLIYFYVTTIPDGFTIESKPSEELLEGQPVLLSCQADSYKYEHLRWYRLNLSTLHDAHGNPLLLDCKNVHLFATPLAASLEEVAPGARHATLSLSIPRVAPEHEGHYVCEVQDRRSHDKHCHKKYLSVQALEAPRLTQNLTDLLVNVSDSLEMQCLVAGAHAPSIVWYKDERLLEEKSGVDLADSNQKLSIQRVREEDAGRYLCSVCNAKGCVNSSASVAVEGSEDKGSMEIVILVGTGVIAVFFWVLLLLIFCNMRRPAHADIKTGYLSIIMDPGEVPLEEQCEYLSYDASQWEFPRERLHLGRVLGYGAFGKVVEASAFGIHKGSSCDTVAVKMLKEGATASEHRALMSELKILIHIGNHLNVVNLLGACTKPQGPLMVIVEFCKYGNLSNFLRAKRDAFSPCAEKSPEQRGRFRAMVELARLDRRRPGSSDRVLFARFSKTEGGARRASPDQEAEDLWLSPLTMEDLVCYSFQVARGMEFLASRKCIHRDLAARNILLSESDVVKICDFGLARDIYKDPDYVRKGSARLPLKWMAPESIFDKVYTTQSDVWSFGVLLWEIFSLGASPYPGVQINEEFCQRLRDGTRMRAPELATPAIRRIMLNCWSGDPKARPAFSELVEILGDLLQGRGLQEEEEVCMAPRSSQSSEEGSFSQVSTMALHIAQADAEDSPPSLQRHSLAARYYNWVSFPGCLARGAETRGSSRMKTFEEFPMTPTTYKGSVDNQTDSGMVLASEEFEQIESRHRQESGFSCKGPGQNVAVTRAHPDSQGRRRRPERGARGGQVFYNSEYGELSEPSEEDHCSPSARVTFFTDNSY
# Sequence of UniProt Q9H2K8 (whole entry, looked up): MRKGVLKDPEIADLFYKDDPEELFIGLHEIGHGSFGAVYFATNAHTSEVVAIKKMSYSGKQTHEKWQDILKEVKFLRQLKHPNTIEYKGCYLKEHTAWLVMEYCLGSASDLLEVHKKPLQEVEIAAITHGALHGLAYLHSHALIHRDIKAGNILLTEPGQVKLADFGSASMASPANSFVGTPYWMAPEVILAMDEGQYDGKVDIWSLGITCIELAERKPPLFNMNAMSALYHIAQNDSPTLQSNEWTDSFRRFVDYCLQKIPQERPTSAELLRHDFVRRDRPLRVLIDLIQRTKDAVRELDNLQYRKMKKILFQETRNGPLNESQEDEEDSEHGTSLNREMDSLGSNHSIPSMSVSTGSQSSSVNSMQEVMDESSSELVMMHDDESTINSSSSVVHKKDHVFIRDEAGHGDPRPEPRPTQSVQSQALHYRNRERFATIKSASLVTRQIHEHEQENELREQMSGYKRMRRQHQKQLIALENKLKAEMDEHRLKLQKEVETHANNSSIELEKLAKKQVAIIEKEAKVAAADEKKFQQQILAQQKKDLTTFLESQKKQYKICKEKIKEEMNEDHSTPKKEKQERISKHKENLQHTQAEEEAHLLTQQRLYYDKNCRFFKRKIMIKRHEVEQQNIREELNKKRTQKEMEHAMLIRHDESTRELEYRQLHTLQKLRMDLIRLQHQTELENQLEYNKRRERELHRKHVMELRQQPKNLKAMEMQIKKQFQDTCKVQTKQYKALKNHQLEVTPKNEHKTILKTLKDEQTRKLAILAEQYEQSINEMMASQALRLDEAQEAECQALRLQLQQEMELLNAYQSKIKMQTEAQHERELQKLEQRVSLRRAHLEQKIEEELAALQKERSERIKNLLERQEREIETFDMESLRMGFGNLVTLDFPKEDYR

# Sample 1
# Cell line: A-375
# Tested at: 100 µM
# Time: 18 h
Structure (SMILES),viability [%]
O[C@@H](c1cc(C(F)(F)F)nc2c(C(F)(F)F)cccc12)[C@H]1CCCCN1,112
COc1ccc(NS(=O)(=O)c2ccc(N)cc2)nn1,103
c1ccc2[nH]c(-c3cscn3)nc2c1,95.8
C[C@@H](O[C@H]1OCCN(Cc2nc(O)n(P(=O)(O)O)n2)[C@H]1c1ccc(F)cc1)c1cc(C(F)(F)F)cc(C(F)(F)F)c1,7.83
Cc1c(N(C)C)c(=O)n(-c2ccccc2)n1C,92.2
COc1c(C)c2c(c(O)c1C/C=C(\C)CCC(=O)OCCN1CCOCC1)C(=O)OC2,81.1
CN[C@@H]1[C@H](O[C@H]2[C@H](O[C@H]3[C@H](O)[C@@H](O)[C@H](NC(=N)N)[C@@H](O)[C@@H]3NC(=N)N)O[C@@H](C)[C@]2(O)CO)O[C@@H](CO)[C@H](O)[C@H]1O,92.7
NNC(=O)c1ccncc1,81.1
Cc1cnc(C(=O)O)c[n+]1[O-],84.3
CC(C)C(=O)c1c(C(C)C)nn2ccccc12,78.2
CC(=O)Oc1c(C)c(C)c2c(c1C)CCC(C)(CCC[C@H](C)CCC[C@H](C)CCCC(C)C)O2 (stereo partly shown),98.2

# Sample 2
# Cell line: mouse MPNST tumor cells
# Technique: high-content nuclear imaging
# Refers to: cell number
# Tested at: 10 µM
# Time: 12 h
# Notes: mean of 2 replicates
# Baseline: plate mean
# Reading: higher = more cells
SMILES,nuclei count
CN(C)c1ccc(C(=O)NCCCCCCC(=O)NO)cc1,-0.418 z-score
Nc1ccn([C@@H]2O[C@H](CO)[C@@H](O)[C@@H]2O)c(=O)n1,-4.04 z-score and -4.47 z-score
CC(C)(Oc1ccc(CCNC(=O)c2ccc(Cl)cc2)cc1)C(=O)O,1.16 z-score
Cc1cc(N)c2ccccc2[n+]1CCCCCCCCCC[n+]1c(C)cc(N)c2ccccc21,-1.98 z-score
C=C(CC)C(=O)c1ccc(OCC(=O)O)c(Cl)c1Cl,-1.12 z-score
CN(C/C=C/C#CC(C)(C)C)Cc1cccc2ccccc12,-0.301 z-score
COc1cc(Br)c(S(=O)(=O)Nc2ccc(Cl)c(OC3CCN(C)C3)c2)cc1OC (stereo not shown),0.763 z-score
CCCN(CCc1cccs1)[C@H]1CCc2c(O)cccc2C1,-0.137 z-score
CC[N+](CC)(CC)CCOc1cccc(OCC[N+](CC)(CC)CC)c1OCC[N+](CC)(CC)CC,0.465 z-score
CC1(C)S[C@@H]2[C@H](NC(=O)[C@H](NC(=O)N3CCNC3=O)c3ccccc3)C(=O)N2[C@H]1C(=O)O,0.765 z-score
COc1ccn2ncc(-c3nc4[nH]nc(NC(=O)c5ccc(F)cc5)c4cc3F)c2c1,0.428 z-score
CCOc1cccc(NC(=O)c2ccc(N3CCCC3)c(C(F)(F)F)c2)c1,4.61 z-score
COc1ncc(-c2ccc3c(Nc4cc(Oc5cc(F)cc(F)c5)cc(C(=O)O)c4)c(S(=O)(=O)NC4CC4)cnc3c2)c(OC)n1,1.3 z-score

# Sample 3
# Compound: O=c1cc(N2CCOCC2)oc2c1ccc1ccccc12
# Observed: enzyme activity
# Action: inhibitor
# Tested at: 0.5 µM
# Baseline: control
target,remaining activity
"Tyrosine-protein kinase Fer (FER, Homo sapiens, UniProt P16591)",91.2%
"ALK tyrosine kinase receptor (ALK, Homo sapiens, UniProt Q9UM73)",104%
"Serine/threonine-protein kinase MRCK alpha (CDC42BPA, Homo sapiens, UniProt Q5VT25)",87.6%
"Insulin receptor (INSR, Homo sapiens, UniProt P06213)",92.3%
"LIM domain kinase 1 (LIMK1, Homo sapiens, UniProt P53667)",98%
"PAS domain-containing serine/threonine-protein kinase (PASK, Homo sapiens, UniProt Q96RG2)",94.9%
"cAMP-dependent protein kinase catalytic subunit PRKX (PRKX, Homo sapiens, UniProt P51817)",96.6%
"Tyrosine-protein kinase Fgr (FGR, Homo sapiens, UniProt P09769)",94.6%
"Serine/threonine-protein kinase NLK (NLK, Homo sapiens, UniProt Q9UBE8)",103%
"MAP/microtubule affinity-regulating kinase 3 (MARK3, Homo sapiens, UniProt P27448)",110%
"Vascular endothelial growth factor receptor 3 (FLT4, Homo sapiens, UniProt P35916)",112%
"Serine/threonine-protein kinase Nek11 (NEK11, Homo sapiens, UniProt Q8NG66)",99.1%
"Megakaryocyte-associated tyrosine-protein kinase (MATK, Homo sapiens, UniProt P42679)",90.7%
"Serine/threonine-protein kinase 25 (STK25, Homo sapiens, UniProt O00506)",94.8%
"Tyrosine-protein kinase Fyn (FYN, Homo sapiens, UniProt P06241)",113%
"RAC-alpha serine/threonine-protein kinase (AKT1, Homo sapiens, UniProt P31749)",101%
"Homeodomain-interacting protein kinase 1 (HIPK1, Homo sapiens, UniProt Q86Z02)",102%
"Tyrosine-protein kinase ITK/TSK (ITK, Homo sapiens, UniProt Q08881)",100%
"Serine/threonine-protein kinase N1 (PKN1, Homo sapiens, UniProt Q16512)",106%
"Serine/threonine-protein kinase TAO3 (TAOK3, Homo sapiens, UniProt Q9H2K8)",98.7%
"Cyclin-dependent kinase 3, with cyclin E (CDK3, Homo sapiens, UniProt Q00526)",102%
"Proto-oncogene tyrosine-protein kinase Src (SRC, Homo sapiens, UniProt P12931)",99.3%

# Sample 4
# Structure (SMILES): C[C@@H]1[C@H](O)[C@@H](C)/C=C/C=C/C=C/C=C/C=C/C=C/C=C/[C@H](O[C@@H]2O[C@H](C)[C@@H](O)[C@H](N)[C@@H]2O)C[C@@H]2O[C@](O)(C[C@@H](O)C[C@@H](O)[C@H](O)CC[C@@H](O)C[C@@H](O)CC(=O)O[C@H]1C)C[C@H](O)[C@H]2C(=O)O
# Organism: Leishmania donovani
# Strain: DD8
# Matrix: promastigotes
conditions,promastigote number
"30 µM, 24 h",1.26e+06 and 1.27e+06
"660 µM, 72 h",58400 and 98500
"330 µM, 72 h",98500 and 58400
"660 µM, 24 h",524000 and 522000
"33330 µM, 48 h",1550 and 1250

# Single results of other studies
Compound,target or system,test,test system,conditions,endpoint,value
O=C(Nc1cnc(Oc2ccc(F)cc2)nc1)N1CCc2ncccc2[C@@H]1c1ccc(F)cc1,"5-hydroxytryptamine receptor 1D (HTR1D, Homo sapiens, UniProt P28221)","binding, radioligand binding",,10 µM,inhibition,4.38%
CC(C)n1cnc(-c2ccc(F)cc2)c1-c1ncc(C(=O)Nc2ccc(N3CCN(C)CC3)cc2)[nH]1,,,IPF patients,"60 mg once daily, adverse event",Cholecystitis incidence,0%
CN(c1ccnc(CNc2nc(Nc3ccc4c(c3)CC(=O)N4)ncc2C(F)(F)F)n1)S(C)(=O)=O,"Focal adhesion kinase 1 (PTK2, Homo sapiens, UniProt Q05397)","target engagement in cells, BRET",,,EC50,3.2 µM
Cc1c(NC(=O)c2cc(C(N)=O)nc3cc(F)ccc23)c(C(F)(F)F)nn1Cc1ccc(C(C)(C)C)cc1,"5-hydroxytryptamine receptor 3A (HTR3A, Homo sapiens, UniProt P46098)","binding, radioligand binding",,10 µM,inhibition,7.59%
